{"data": "Measurements pooled from the literature", "KDM1A": "Lysine-specific histone demethylase 1A (KDM1A, Homo sapiens, UniProt O60341)", "Rhomboid protease AarA": "Rhomboid protease AarA (Providencia stuartii, UniProt P46116)", "note": "Lines come from different studies, so protocols differ.", "chain of UniProt P46116 (whole entry, looked up)": "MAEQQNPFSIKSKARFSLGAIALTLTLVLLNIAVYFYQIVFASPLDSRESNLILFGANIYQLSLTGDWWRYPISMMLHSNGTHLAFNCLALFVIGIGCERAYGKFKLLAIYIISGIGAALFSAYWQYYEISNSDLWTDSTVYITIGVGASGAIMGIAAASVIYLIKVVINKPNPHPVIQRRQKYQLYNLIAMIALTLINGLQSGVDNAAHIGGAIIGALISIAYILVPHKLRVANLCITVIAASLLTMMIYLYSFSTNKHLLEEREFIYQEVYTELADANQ", "chain of UniProt Q8IZL9 (whole entry, looked up)": "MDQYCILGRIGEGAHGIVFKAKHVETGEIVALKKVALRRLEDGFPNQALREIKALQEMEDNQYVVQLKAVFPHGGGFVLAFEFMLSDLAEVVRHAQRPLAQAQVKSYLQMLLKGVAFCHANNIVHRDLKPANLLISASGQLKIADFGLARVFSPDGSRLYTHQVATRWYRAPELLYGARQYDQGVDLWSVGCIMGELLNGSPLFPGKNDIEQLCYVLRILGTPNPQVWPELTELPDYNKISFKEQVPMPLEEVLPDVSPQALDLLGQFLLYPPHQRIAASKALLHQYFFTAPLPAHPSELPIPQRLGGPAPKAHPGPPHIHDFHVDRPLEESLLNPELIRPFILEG", "chain of UniProt P10721 (whole entry, looked up)": "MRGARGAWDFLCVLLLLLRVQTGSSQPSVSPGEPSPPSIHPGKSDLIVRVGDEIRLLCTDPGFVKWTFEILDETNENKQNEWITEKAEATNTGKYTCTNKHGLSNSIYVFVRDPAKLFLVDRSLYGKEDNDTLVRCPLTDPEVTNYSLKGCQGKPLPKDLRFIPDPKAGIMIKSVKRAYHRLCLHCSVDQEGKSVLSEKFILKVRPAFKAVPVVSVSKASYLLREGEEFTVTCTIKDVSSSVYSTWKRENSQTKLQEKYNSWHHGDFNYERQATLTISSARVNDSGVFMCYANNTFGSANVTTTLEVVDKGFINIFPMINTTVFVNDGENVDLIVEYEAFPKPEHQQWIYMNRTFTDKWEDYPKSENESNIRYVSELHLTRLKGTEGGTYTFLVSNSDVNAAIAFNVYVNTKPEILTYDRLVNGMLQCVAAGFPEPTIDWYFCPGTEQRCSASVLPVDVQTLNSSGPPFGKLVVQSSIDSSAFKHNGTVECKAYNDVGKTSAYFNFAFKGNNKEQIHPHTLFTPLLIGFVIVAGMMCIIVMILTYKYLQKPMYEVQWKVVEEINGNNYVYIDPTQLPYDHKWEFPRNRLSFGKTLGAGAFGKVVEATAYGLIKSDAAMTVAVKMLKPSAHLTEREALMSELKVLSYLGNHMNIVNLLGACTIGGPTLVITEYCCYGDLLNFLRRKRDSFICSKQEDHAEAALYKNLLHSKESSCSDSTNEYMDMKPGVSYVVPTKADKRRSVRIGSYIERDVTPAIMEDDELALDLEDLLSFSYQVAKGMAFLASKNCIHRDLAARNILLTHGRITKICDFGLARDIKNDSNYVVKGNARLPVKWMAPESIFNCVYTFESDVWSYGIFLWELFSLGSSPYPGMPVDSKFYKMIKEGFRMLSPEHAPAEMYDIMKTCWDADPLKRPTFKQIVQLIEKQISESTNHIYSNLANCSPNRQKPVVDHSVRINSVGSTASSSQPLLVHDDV", "chain of UniProt O75417 (whole entry, looked up)": "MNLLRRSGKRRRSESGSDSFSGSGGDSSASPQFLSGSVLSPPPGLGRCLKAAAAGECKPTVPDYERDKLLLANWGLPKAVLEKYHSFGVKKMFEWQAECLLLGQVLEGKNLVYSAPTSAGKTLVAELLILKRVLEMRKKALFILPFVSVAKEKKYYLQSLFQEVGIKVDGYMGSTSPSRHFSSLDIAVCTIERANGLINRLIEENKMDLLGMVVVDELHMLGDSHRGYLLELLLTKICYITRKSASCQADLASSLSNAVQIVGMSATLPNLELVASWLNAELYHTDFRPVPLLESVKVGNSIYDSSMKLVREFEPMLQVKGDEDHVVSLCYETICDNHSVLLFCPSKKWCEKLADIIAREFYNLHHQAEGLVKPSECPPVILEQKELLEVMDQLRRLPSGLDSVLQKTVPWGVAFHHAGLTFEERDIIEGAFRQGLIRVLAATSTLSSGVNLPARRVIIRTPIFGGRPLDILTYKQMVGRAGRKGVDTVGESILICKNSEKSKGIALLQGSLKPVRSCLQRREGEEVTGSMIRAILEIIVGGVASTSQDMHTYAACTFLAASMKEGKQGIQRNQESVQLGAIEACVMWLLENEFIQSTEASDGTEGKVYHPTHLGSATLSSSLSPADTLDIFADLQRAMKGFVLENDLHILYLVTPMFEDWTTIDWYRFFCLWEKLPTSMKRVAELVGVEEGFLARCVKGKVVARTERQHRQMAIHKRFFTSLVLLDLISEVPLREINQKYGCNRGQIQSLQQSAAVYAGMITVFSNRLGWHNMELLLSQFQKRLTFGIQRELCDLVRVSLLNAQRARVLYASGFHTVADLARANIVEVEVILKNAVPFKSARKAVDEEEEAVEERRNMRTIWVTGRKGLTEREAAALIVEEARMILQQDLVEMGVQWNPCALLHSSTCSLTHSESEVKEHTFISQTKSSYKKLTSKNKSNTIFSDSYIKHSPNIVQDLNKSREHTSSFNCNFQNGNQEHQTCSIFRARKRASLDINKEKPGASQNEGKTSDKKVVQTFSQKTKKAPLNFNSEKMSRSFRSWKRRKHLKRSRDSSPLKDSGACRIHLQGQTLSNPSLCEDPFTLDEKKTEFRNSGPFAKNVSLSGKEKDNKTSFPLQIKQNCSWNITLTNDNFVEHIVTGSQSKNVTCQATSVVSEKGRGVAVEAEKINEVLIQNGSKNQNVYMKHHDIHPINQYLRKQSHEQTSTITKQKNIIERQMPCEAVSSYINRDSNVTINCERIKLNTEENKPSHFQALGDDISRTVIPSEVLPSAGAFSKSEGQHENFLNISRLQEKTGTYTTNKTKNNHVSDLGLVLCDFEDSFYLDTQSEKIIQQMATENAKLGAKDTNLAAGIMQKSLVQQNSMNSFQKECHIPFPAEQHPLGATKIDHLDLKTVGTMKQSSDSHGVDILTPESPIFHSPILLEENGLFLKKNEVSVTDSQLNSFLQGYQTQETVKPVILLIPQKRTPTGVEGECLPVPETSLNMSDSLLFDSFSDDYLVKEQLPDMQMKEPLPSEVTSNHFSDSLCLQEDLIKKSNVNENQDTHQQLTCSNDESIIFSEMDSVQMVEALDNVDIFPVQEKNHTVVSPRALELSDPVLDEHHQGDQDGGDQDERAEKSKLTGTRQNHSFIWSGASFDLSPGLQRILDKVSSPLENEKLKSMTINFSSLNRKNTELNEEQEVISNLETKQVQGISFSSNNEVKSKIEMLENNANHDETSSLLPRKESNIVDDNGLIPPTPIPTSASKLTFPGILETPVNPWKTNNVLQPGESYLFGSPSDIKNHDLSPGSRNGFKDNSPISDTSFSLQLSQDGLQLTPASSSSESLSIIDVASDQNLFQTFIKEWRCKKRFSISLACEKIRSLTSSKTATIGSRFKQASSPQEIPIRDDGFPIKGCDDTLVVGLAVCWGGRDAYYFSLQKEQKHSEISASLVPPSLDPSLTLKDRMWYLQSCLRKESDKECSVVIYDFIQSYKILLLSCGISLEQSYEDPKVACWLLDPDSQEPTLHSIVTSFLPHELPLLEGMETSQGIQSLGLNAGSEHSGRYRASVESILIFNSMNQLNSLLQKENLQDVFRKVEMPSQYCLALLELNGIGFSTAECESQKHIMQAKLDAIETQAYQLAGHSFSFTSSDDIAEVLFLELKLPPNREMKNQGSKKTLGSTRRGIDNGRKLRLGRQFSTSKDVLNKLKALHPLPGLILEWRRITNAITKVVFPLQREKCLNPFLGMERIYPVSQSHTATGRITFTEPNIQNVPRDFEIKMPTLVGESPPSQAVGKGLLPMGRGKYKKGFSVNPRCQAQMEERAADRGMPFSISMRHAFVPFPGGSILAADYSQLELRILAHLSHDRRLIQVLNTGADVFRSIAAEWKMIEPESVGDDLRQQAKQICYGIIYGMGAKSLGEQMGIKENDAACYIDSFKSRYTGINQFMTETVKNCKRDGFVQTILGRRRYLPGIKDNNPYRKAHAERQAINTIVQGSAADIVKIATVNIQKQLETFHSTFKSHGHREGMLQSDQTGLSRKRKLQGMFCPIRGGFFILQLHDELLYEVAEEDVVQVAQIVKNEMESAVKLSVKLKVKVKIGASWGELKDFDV", "chain of UniProt Q9HB29 (whole entry, looked up)": "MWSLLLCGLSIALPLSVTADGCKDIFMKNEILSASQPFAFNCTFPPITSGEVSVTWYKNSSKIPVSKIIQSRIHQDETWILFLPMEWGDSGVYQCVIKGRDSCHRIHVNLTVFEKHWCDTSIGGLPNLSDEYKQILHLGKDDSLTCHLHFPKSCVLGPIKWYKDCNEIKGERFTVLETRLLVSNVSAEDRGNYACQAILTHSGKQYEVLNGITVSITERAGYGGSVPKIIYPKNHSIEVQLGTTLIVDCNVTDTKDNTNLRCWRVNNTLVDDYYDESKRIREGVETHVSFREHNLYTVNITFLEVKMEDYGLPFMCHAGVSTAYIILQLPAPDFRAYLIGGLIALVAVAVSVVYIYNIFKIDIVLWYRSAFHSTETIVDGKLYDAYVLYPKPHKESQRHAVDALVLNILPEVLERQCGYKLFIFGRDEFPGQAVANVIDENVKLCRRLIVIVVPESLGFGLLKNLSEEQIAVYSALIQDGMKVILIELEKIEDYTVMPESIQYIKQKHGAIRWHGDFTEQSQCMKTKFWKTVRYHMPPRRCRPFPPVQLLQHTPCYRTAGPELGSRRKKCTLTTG", "chain of UniProt P10144 (whole entry, looked up)": "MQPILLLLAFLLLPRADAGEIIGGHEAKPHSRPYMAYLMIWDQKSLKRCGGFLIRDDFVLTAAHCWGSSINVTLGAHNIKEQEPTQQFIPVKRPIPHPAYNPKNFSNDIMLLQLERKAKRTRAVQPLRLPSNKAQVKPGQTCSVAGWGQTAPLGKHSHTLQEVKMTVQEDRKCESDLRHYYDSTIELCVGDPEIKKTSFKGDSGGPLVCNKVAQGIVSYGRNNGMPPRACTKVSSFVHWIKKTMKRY"}
{"Compound": "Cc1cnc(NC(=O)c2cccc([C@@H]3C[C@H]3NC3CCC3)c2)s1", "target": "KDM1A", "assay": "demethylase activity, inhibitor, Amplex Red", "conditions": "0.6667 µM, together with: H3K4me2 peptide", "scale": "reference: vehicle", "remaining activity": "35.9%"}
{"Compound": "COc1ccccc1-c1ccncc1C(=O)Nc1ccc(OCc2ccc(Cl)cc2)nn1", "target": "DNA polymerase theta, helicase domain (POLQ, Homo sapiens, UniProt O75417)", "assay": "ATPase activity, ADP-Glo", "conditions": "0.12 µM", "scale": "reference: 0 µM cpd", "remaining activity": "104%"}
{"Compound": "C[C@](C(=O)NC1CCOCC1)(c1cncnc1)N(C(=O)[C@H](F)Cl)c1ccc(OC(F)(F)Cl)cc1", "target": "Granzyme B (GZMB, Homo sapiens, UniProt P10144)", "assay": "enzyme activity, inhibitor", "conditions": "10 µM", "remaining activity": "105%"}
{"Compound": "CC(C)[C@@H]1NC(=O)[C@H](Cc2ccccc2)NC(=O)CSC[C@@H](C(N)=O)NC(=O)[C@H](CCC(=O)O)NC(=O)[C@H](CO)NC(=O)[C@H](Cc2c[nH]c3cccc(Cl)c23)NC(=O)[C@H](C2CCCCC2)NC(=O)[C@H](C(C)C)NC(=O)[C@H](Cc2ccc(O)cc2)NC(=O)[C@H](CC(=O)O)NC(=O)[C@H](Cc2c[nH]c3ccccc23)NC(=O)[C@H](Cc2ccc(N)nc2)NC(=O)[C@H](Cc2c[nH]c3ccc(Cl)cc23)NC(=O)[C@H](CCC(=O)O)NC1=O", "target": "Interleukin-1 receptor-like 2 (IL1RL2, Homo sapiens, UniProt Q9HB29)", "assay": "reporter gene (SEAP), inhibitor, HEK-Blue IL-36R reporter", "test system": "HEK-Blue IL-36R cells", "conditions": "0.14 µM, 6 h, together with: IL-36γ 3 ng/mL", "remaining activity": "102%"}
{"Compound": "O=C=[N][Ru-4]123([n]4c5ccc(O)cc5c5c6c(c7cc(F)c[n+]1c7c54)C(=O)NC6=O)[S+]1CC[S+]2CC[S+]3CC1 (stereo not shown)", "target": "KIT (Homo sapiens, UniProt P10721)", "assay": "enzyme activity", "conditions": "100 nM, human enzyme, together with: 10 µM ATP", "scale": "reference: untreated", "remaining activity": "121%"}
{"Compound": "CN1C[C@@H](c2c[nH]c3cc(Br)ccc23)NC[C@@H]1c1c[nH]c2cc(Br)ccc12", "target": "Cyclin-dependent kinase 20, with cyclin T1 (CDK20, Homo sapiens, UniProt Q8IZL9)", "assay": "enzyme activity, inhibitor", "conditions": "10 µM", "remaining activity": "102%"}
{"Compound": "O=C1CC(c2cccc(Br)c2)N1S(=O)(=O)c1cccc(Cl)c1 (stereo not shown)", "target": "Rhomboid protease AarA", "assay": "enzyme activity, inhibitor", "conditions": "100 µM", "remaining activity": "54%"}
{"Compound": "O=C(Nc1cccc([C@@H]2C[C@H]2NC2CCC2)c1)c1ccccc1", "target": "KDM1A", "assay": "demethylase activity, inhibitor", "conditions": "0.02286 µM, together with: H3K4me2 peptide", "remaining activity": "97.1%"}
{"Compound": "O=C1CC(c2ccccc2)N1C(=O)Oc1ccccc1 (stereo not shown)", "target": "Rhomboid protease AarA", "assay": "enzyme activity, inhibitor", "conditions": "100 µM", "remaining activity": "97%"}
{"Compound": "CN(C)C(=O)c1cccc([C@@H]2C[C@H]2NC2CCC2)c1", "target": "KDM1A", "assay": "demethylase activity, inhibitor", "conditions": "1.852 µM, together with: H3K4me2 peptide", "remaining activity": "89.4%"}
{"Compound": "Cc1cccc(-c2ccc3nc(NC(=O)C4CCCO4)nn3c2)c1 (stereo not shown)", "target": "AMPK", "assay": "enzyme activity", "conditions": "10 µM", "remaining activity": "93%"}
{"Compound": "O=C(Nc1ccccc1)c1cccc([C@@H]2C[C@H]2NC2CCC2)c1 (racemic)", "target": "KDM1A", "assay": "demethylase activity, inhibitor, Amplex Red", "conditions": "0.00823 µM, together with: H3K4me2 peptide", "scale": "reference: vehicle", "remaining activity": "92%"}
{"Compound": "COC(=O)[C@@]1(C)C=C(C(=O)Nc2cccc(C(=O)Nc3ccc(Nc4nccc(-c5cccnc5)n4)c(C)c3)c2)C(=O)CC1", "target": "Mitogen-activated protein kinase 8, phosphorylated (MAPK8, Homo sapiens, UniProt P45983)", "assay": "enzyme activity after dialysis, inhibitor", "conditions": "10 µM, 5 days, unit not given", "scale": "reference: no inhibitor", "remaining activity": 0.518}
{"note": "Excerpt of the above:"}
{"Compound": "O=C(Nc1cccc([C@@H]2C[C@H]2NC2CCC2)c1)c1ccccc1", "target": "KDM1A", "assay": "demethylase activity, inhibitor", "conditions": "0.02286 µM, together with: H3K4me2 peptide", "remaining activity": "97.1%"}
